# Experimental data pooled from the literature.
# Numbers after ± are the reported error.
# CHRM1: Muscarinic acetylcholine receptor M1 (CHRM1, Homo sapiens, UniProt P11229)
# SLC10A2: Ileal sodium/bile acid cotransporter (SLC10A2, Homo sapiens, UniProt Q12908)
# CASP3: Caspase-3 (CASP3, Homo sapiens, UniProt P42574)
Structure (SMILES),target,assay,test system,conditions,Ki
CNC(=O)C1CCN(c2cc(C)c(F)cc2NC(=O)c2ccc(-c3cc(O)ccc3C)c(C)c2)CC1,"Tyrosine-protein kinase TXK (TXK, Homo sapiens, UniProt P42681)","cell-free assay, TR-FRET",,,0.0178 µM
CC(C)=CCCC(C)=CCc1c(O)ccc2cc(-c3cc(O)c4ccoc4c3)oc12,"Tyrosine-protein phosphatase non-receptor type 1 (PTPN1, Homo sapiens, UniProt P18031)","enzyme activity, inhibitor",,,6.22 µM
COc1ccc(CCCN[C@H]2CCC[C@@H]2CN[C@H]2CCC[C@@H]2CNCCCCN[C@@H]2CCC[C@H]2CN)cc1,"Amine oxidase [flavin-containing] B (MAOB, Homo sapiens, UniProt P27338)","enzyme activity, inhibitor",,,> 500 µM
O=C1Nc2ccccc2N(C(=O)CN2CCC(CCCCNCCCCC3CCN(CCCN4C(=O)CCc5ccccc54)CC3)CC2)c2ccccc21,CHRM1,"ligand displacement, radioligand",,,0.00398 µM
CC(C)C[C@@H](C=O)NC(=O)[C@H](CC(=O)O)NC(=O)[C@H](CCCCN)NC(=O)[C@H](CO)NC(=O)[C@H](CO)NC(=O)OCc1ccccc1,"Prostate-specific antigen (Homo sapiens, UniProt P07288)","enzyme activity, inhibitor, fluorescence",,pH 7.8,> 1000 µM
CC(CCC(=O)NC(CCC(=O)Nc1ccc(Cl)nc1)C(=O)O)C1CCC2C3C(O)CC4CC(O)CCC4(C)C3CCC12C (stereo not drawn),SLC10A2,"taurocholate uptake, inhibitor",ASBT-MDCK,"10 min, together with: taurocholate 2.5 µM",7.92 µM
CC(C)C[C@H](NC(=O)[C@H](CC(C)C)NC(=O)[C@H](Cc1c[nH]cn1)NC(=O)[C@H](CC(C)C)NC(=O)[C@@H](NC(=O)[C@H](CCC(=O)O)NC(=O)[C@H](CO)NC(=O)[C@H](Cc1c[nH]c2ccccc12)NC(=O)[C@H](C)NC(=O)[C@@H](N)[C@@H](C)O)C(C)C)C(=O)N[C@@H](CO)C(=O)N[C@@H](CCCNC(=N)N)C(=O)NCC(=O)NCC(=O)NCC(=O)N[C@@H](CO)C(=O)N[C@@H](CCCCN)C(N)=O,"ATP2B4 (Homo sapiens, UniProt P23634)","enzyme activity, inhibitor",human erythrocyte ghosts,37 °C,45 ± 4 µM
CC(=O)N[C@H](C(=O)N[C@@H](CC(=O)O)C(=O)N[C@H](C(=O)N[C@H](CCCCN)C(=O)N[C@H](C=O)CC(=O)O)C(C)C)C(C)C,CASP3,"enzyme activity, inhibitor, fluorescence",,pH 7,> 100 µM
CCOC(=O)[C@](CC)(CCCSCCOCCOCCNC(=O)c1ccc(C(=O)[O-])c(C2=C3C=CC(=[N+](C)C)C=C3[Si](C)(C)c3cc(N(C)C)ccc32)c1)NC(=O)c1ccc(C2CC2)c(Cc2ccc(F)cc2)n1,"Cannabinoid receptor 1 (Cnr1, Mus musculus, UniProt P47746)","ligand displacement, radioligand",,cell membranes,1.89 µM
CC(C)=CCc1c(O)c(CC=C(C)C)c2occ(-c3ccc(O)c(O)c3)c(=O)c2c1O,"Beta-glucuronidase (uidA, Escherichia coli, UniProt P05804)","enzyme activity, inhibitor",,,1.41 µM
CN1CCN(CCCCC2CCN(CC(=O)N3c4ccccc4NC(=O)c4ccccc43)CC2)CC(N)C1 (stereo not drawn),CHRM1,"ligand displacement, radioligand",,,0.055 µM
CC(=O)N[C@@H](Cc1c[nH]c2ccccc12)C(=O)N[C@@H](CC(=O)O)C(=O)N[C@@H](CCCNC(=N)N)C(=O)N[C@@H](C)C(=O)N[C@H](C=O)CC(=O)O,CASP3,"enzyme activity, inhibitor, fluorescence",,pH 7,0.0457 µM
C[C@H](CCC(=O)O)[C@H]1CC[C@H]2[C@@H]3[C@@H](OC(=O)c4cccnc4)C[C@H]4C[C@H](O)CC[C@]4(C)[C@H]3CC[C@]12C,SLC10A2,"transporter uptake, inhibitor, radiometric",,,34.2 µM
CCC(=O)NCc1cc(C(=O)NCCCC(=O)NCCCCCOc2nsnc2C2=CCCN(C)C2)cc(C(=O)NCCN2CCN(CCCCC3CCN(CC(=O)N4c5ccccc5NC(=O)c5ccccc54)CC3)CC2)c1,"Muscarinic acetylcholine receptor M5 (CHRM5, Homo sapiens, UniProt P08912)","ligand displacement, radioligand",,,0.00427 µM
Fc1cc(OCCCN2CCN(c3cccc4sccc34)CC2)ccc1CN1CCOCC1,"D(2) dopamine receptor (Drd2, Rattus norvegicus, UniProt P61169)","cell-free assay, radioligand",,,0.0246 µM

# Repeated from above:
Structure (SMILES),target,assay,test system,conditions,Ki
CCC(=O)NCc1cc(C(=O)NCCCC(=O)NCCCCCOc2nsnc2C2=CCCN(C)C2)cc(C(=O)NCCN2CCN(CCCCC3CCN(CC(=O)N4c5ccccc5NC(=O)c5ccccc54)CC3)CC2)c1,"Muscarinic acetylcholine receptor M5 (CHRM5, Homo sapiens, UniProt P08912)","ligand displacement, radioligand",,,0.00427 µM
